Measured values of several laboratories.
A part holds a random share of what one study measured. Positions count from the first letter of the parent shown.
Sequence of UniProt P28223 (whole entry, looked up): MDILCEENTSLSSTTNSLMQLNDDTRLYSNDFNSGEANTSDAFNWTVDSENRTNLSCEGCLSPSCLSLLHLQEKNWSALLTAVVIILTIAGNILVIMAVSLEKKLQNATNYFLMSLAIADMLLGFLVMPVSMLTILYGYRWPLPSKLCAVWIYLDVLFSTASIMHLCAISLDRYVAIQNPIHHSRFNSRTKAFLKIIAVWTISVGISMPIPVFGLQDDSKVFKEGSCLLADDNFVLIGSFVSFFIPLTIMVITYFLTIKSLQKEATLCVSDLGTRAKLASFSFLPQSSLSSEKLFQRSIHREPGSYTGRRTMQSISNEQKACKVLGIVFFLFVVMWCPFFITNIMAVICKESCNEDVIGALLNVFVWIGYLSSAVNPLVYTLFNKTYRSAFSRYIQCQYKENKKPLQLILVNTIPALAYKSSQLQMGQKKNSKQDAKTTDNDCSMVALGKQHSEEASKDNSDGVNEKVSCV

Series 1 — technique: protein binding microarray; molecule type: double-stranded DNA, one strand shown; medium: in vitro; tested at: not given; baseline: not given; direction: higher = stronger binding
Target: Histone acetyltransferase KAT6A, winged helix 2, GST fusion (KAT6A, Homo sapiens, UniProt Q92794, residues 85-181)
Notes: 8-mer, flanks averaged, mean of 2 arrays, mostly near background
Residues (chain): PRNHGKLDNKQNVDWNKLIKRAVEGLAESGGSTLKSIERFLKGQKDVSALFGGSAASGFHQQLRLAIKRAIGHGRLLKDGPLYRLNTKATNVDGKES
Oligonucleotide | E-score
AAACTGCT | -0.125
CAATGTCC | -0.0744
ACTATAAT | -0.217
AGAATCTC | -0.0165
GGGGCAAC | 0.193
CAGGCCCC | -0.0908
TCCGAGAA | 0.0985
ATGCGAAA | 0.141

Series 2 — technique: RNA Bind-n-Seq; molecule type: RNA; medium: in vitro; tested at: 200 nM; notes: whole 134-nt RNA, ends assumed; added: 150 mM KCl; baseline: input library; direction: higher = stronger binding
Target: Fragile X messenger ribonucleoprotein 1, C-terminal low-complexity region (Fmr1, Mus musculus, UniProt P35922)
Shared flanks, not repeated: GGGAGUUCUACAGUCCGACGAUC … UGGAAUUCUCGGGUGUCAAGG
Oligonucleotide | log2 enrichment
CACAGACAACACGCACCCACACAGAAACAGAGGGAAGGGGUUGGGAUGGGGACAGGGUGCACAGCAGGGCGGGGUAGGACCCCAGCCCCU | 1.22
UCCUGUGCUACACAUCGUAUGUACCGAAUCGGGGCCCCCCGGCCCCCCGGGGCCCCCCGGAAAGUAUUAUGUUACGCCGUUCGGAUCUGC | 0.101
CAAGUCCUGUGCUACACAUCGUAUGUACCGAAUCGGAAAGGGGAAAGGGAAAGGGAAAGUAUUAUGUUACGCCGUUCGGAUCUGCACUUC | 0.325
UAACUUUAGAGGAGGAUCUGAUGGAUAUGGCAGUGGACGUGGAUUUGGGGAUGGCUAUAAUGGGUAUGGCGGAGGACCUGGAGGUGGCAA | 0.263
CAAGUCCUGUGCUACACAUCGUAUGUACCGAAUCGGGUGGGUUUUUGGGAAAGGGAAAGUAUUAUGUUACGCCGUUCGGAUCUGCACUUC | 0.526
AAGUCCUGUGCUACACAUCGUAUGUACCGAAUCGGGUUUGGGAAAGGGUUUUUGGGAAAGUAUUAUGUUACGCCGUUCGGAUCUGCACUU | 0.746
CACAGACAACACGCACCCACACAGACACAGAGGGAAGGGGUUGGGAUGGGGACAGGGUGCACAGCAGGGCAAAGUAGGACCCCAGCCCCU | 1.14
AAGUCCUGUGCUACACAUCGUAUGUACCGAAUCGGGAAAAAGGGAAAAAGGGAGGGAAAGUAUUAUGUUACGCCGUUCGGAUCUGCACUU | 0.524

Series 3 — technique: universal PBM; molecule type: double-stranded DNA, one strand shown; medium: in vitro; tested at: not given; direction: higher = stronger binding
Target: Sal-like protein 4, full length isoform B (SALL4, Homo sapiens, UniProt Q9UJQ4-2, residues 1-616)
Notes: 8-mer, flanks averaged, mean of replicates
Oligonucleotide | E-score
TACGCTAA | 0.105
ACCTGCGT | -0.128
CCAGCACC | -0.336
TCCGCACA | -0.0244
CAAGTGTC | 0.0275
CGCGTCAG | -0.233
ACCCGGAT | -0.29
ATGGCTGG | -0.222

Series 4 — target: CCNB3, cyclin fold, Cln2 fusion (human); technique: yeast growth competition, sequencing; medium: yeast; notes: strong parent motif; baseline: not given; direction: higher = stronger binding; starting sequence: viral docking peptide; KGVKRKLFAEDSS
Variant | normalised enrichment score
KGVKRGLFAEDSS [K6G] | 0.699
KGVKRKLFAEDDS [S12D] | 3.69
KGVERKLFAEDSS [K4E] | -0.0114
KGVKRMLFAEDSS [K6M] | 0.995
KGVKRKLFIEDSS [A9I] | 2.77
KGVKAKAFAEDSS [R5A L7A] | 0.215
KGVKRKLFANDSS [E10N] | 2.53
KGVKRKLFAEGSS [D11G] | 2.45
KGVKRKLFAEMSS [D11M] | 1.42
KGVKRQLFAEDSS [K6Q] | 1.25
KGVKRKLFAEDWS [S12W] | 2.8
KGVKRKLDAEDSS [F8D] | -0.531
KGVKRKLRAEDSS [F8R] | 0.0698
KGRKRKLFAEDSS [V3R] | -0.0733
KKVKRKLFAEDSS [G2K] | 2.44
KGVKRKYFAEDSS [L7Y] | 0.465
KGVKRTLFAEDSS [K6T] | 5.35
KGVKWKLFAEDSS [R5W] | 0.358

Other studies, line by line
SMILES | target | test | setting | quantity | value
Cc1cc2c(-c3ccco3)cnc(N[C@@H]3CCN(C)C[C@H]3C(=O)NC3CCCCC3)c2[nH]c1=O | 5-hydroxytryptamine receptor 2A (HTR2A, Homo sapiens, UniProt P28223) | ligand displacement | 10 µM | inhibition | -5.01%

A few entries again (series 3):
Oligonucleotide | E-score
TACGCTAA | 0.105
ACCTGCGT | -0.128
CCAGCACC | -0.336
TCCGCACA | -0.0244
CAAGTGTC | 0.0275
